{"data": "Measured values pooled from the literature", "rep main protease": "Replicase polyprotein 1ab, main protease (rep, Severe acute respiratory syndrome coronavirus 2, UniProt P0DTD1)", "rep papain-like protease": "Replicase polyprotein 1ab, papain-like protease (rep, Severe acute respiratory syndrome coronavirus 2, UniProt P0DTD1)", "note": "Each line is one published result; not all experiments were run side by side. ± marks the error that the study gave."}
{"Molecule": "COc1c2c(cc(O)c1-c1oc3cc(O)ccc3c1CO)OC(C)(C)CC2", "tested on": "rep main protease", "test": "enzyme activity, inhibitor", "setting": "concentration not given", "measurement": "inhibition", "value": "13.6%"}
{"Molecule": "COc1ccc(-c2oc3cc(OC)cc(OC)c3c(=O)c2OC)cc1", "tested on": "rep main protease", "test": "enzyme activity, inhibitor", "setting": "100 µM", "measurement": "inhibition", "value": "-6.57%"}
{"Molecule": "Cn1cnc(Cn2c(=O)[nH]/c(=N\\c3cc4cn(C)nc4cc3Cl)n(Cc3cc(F)c(F)cc3F)c2=O)n1", "system": "human, normal renal function", "setting": "oral, 375 mg", "measurement": "anaemia TEAE, Moderate severity", "value": "0%"}
{"Molecule": "COc1cc(O)c2c(=O)cc(-c3ccccc3)oc2c1", "tested on": "rep main protease", "test": "enzyme activity, inhibitor", "setting": "100 µM", "measurement": "inhibition", "value": "10.9%"}
{"Molecule": "Nc1ncnc2c([C@@H]3N[C@H](CO)[C@@H](O)[C@H]3O)c[nH]c12", "tested on": "Japanese encephalitis virus", "test": "viral replication, inhibitor", "system": "Vero 76", "setting": "0.3 µM", "measurement": "inhibition", "value": "0%"}
{"Molecule": "COc1cc2c(cc1OC)-c1c(C)c3ccc(OC)c(OC)c3c[n+]1CC2", "tested on": "rep main protease", "test": "reporter gene (Gaussia luciferase), inhibitor", "setting": "20 µM", "measurement": "inhibition", "value": "0.158%"}
{"Molecule": "Cc1nn(-c2ccc(Cl)cc2)c2c1C(c1ccc(Cl)cc1Cl)C(C#N)=C(N)O2 (stereo not shown)", "tested on": "rep main protease", "test": "3CL protease activity", "setting": "0.0001 µg/mL, 120 min, enzyme 0.1 ng/mL", "measurement": "inhibition", "value": "1.87%"}
{"Molecule": "O=c1cc(-c2ccc(O)cc2)oc2cc(O[C@@H]3O[C@H](CO)[C@@H](O)[C@H](O)[C@H]3O)ccc12", "tested on": "rep main protease", "test": "enzyme activity, inhibitor", "setting": "concentration not given", "measurement": "inhibition", "value": "12.5%"}
{"Molecule": "O=C(Cc1cccnc1)N1CCC[C@H]([C@H]2CCN(C(=O)C3=CO[C@H]4C=CC(F)=CC4=C3)C2)C1", "tested on": "rep main protease", "test": "enzyme activity, inhibitor", "setting": "5 µM, run 1", "measurement": "inhibition", "value": "16.4%"}
{"Molecule": "CCC[C@H](NC(=O)[C@@H]1[C@H]2CCC[C@H]2CN1C(=O)[C@@H](NC(=O)[C@@H](NC(=O)c1cnccn1)C1CCCCC1)C(C)(C)C)C(=O)C(=O)NC1CC1", "tested on": "rep main protease", "test": "reporter gene (Gaussia luciferase), inhibitor", "setting": "20 µM", "measurement": "inhibition", "value": "2.56%"}
{"Molecule": "COc1cc2occ(-c3ccc(O)cc3O)c(=O)c2c(O)c1CC=C(C)C", "tested on": "rep papain-like protease", "test": "enzyme activity, inhibitor", "setting": "concentration not given", "measurement": "inhibition", "value": "54.3%"}
{"Molecule": "COc1ccc(-c2oc3cc(OC)cc(O)c3c(=O)c2OC)cc1", "tested on": "rep main protease", "test": "enzyme activity, inhibitor", "setting": "100 µM", "measurement": "inhibition", "value": "12.5%"}
{"Molecule": "voxilaprevir", "tested on": "rep main protease", "test": "enzyme activity, mKate2 fluorescence reporter", "system": "SARS-CoV-2", "setting": "20 µM", "measurement": "inhibition", "value": "0.269%"}
{"Molecule": "COc1c2c(cc3oc(=O)c(-c4ccc(O)cc4O)cc13)OC(C)(C)CC2", "tested on": "rep main protease", "test": "enzyme activity, inhibitor", "setting": "concentration not given", "measurement": "inhibition", "value": "16.2%"}
{"Molecule": "CC[C@H](C)[C@H](NC(=O)[C@H](CC(C)C)NC(=O)[C@H](Cc1c[nH]c2ccccc12)NC(=O)[C@H](CCC(N)=O)NC(=O)[C@@H](NC(=O)[C@H](Cc1ccccc1)NC(=O)[C@H](C)NC(=O)[C@H](CCCCNC(=O)COCCOCCNC(=O)COCCOCCNC(=O)CC[C@H](NC(=O)CCCCCCCCCCCCCCCCCCC(=O)O)C(=O)O)NC(=O)[C@H](CCC(N)=O)NC(=O)[C@H](C)NC(=O)[C@@H](NC(=O)[C@H](CCCCN)NC(=O)[C@H](CC(=O)O)NC(=O)[C@H](CC(C)C)NC(=O)C(C)(C)NC(=O)[C@@H](NC(=O)[C@H](CO)NC(=O)[C@H](Cc1ccc(O)cc1)NC(=O)[C@H](CC(=O)O)NC(=O)[C@H](CO)NC(=O)[C@@H](NC(=O)[C@H](Cc1ccccc1)NC(=O)[C@@H](NC(=O)CNC(=O)[C@H](CCC(=O)O)NC(=O)C(C)(C)NC(=O)[C@@H](N)Cc1ccc(O)cc1)[C@@H](C)O)[C@@H](C)O)[C@@H](C)CC)[C@@H](C)CC)C(C)C)C(=O)N[C@@H](C)C(=O)NCC(=O)NCC(=O)N1CCC[C@H]1C(=O)N[C@@H](CO)C(=O)N[C@@H](CO)C(=O)NCC(=O)N[C@@H](C)C(=O)N1CCC[C@H]1C(=O)N1CCC[C@H]1C(=O)N1CCC[C@H]1C(=O)N[C@@H](CO)C(N)=O", "system": "healthy subjects, single ascending dose", "setting": "0.5 mg, day 29", "measurement": "serum AST", "value": "22.1 ± 7 U/L"}
{"Molecule": "Nc1nc2nc[nH]c2c(=S)[nH]1", "tested on": "rep papain-like protease", "test": "BRET in cells", "setting": "up to 100 µM", "measurement": "inhibition", "value": "inactive"}
{"Molecule": "C=C1[C@@H](C)[C@H]2[C@H](Cc3ccccc3)NC(=O)[C@]23[C@H](OC(C)=O)/C=C/[C@](C)(O)C[C@@H](C)C/C=C/[C@H]3[C@@H]1O", "tested on": "rep main protease", "test": "reporter gene (mKate2), inhibitor", "setting": "20 µM", "measurement": "inhibition", "value": "-0.644%"}
{"Molecule": "O=c1cc(-c2ccc(O)cc2)oc2c([C@@H]3O[C@H](CO)[C@@H](O)[C@H](O)[C@H]3O)c(O)c([C@@H]3OC[C@H](O)[C@H](O)[C@H]3O)c(O)c12", "tested on": "rep main protease", "test": "enzyme activity, inhibitor", "setting": "concentration not given", "measurement": "inhibition", "value": "63%"}
{"Molecule": "Cc1nn(C)c2ncc(C(=O)N3CC4(CCOCC4)C[C@H]3CNC(=O)c3cccnc3)cc12", "tested on": "rep main protease", "test": "enzyme activity, inhibitor", "setting": "5 µM, run 1", "measurement": "inhibition", "value": "9.1%"}
{"Molecule": "CC(C)=CCc1c(O)c(CC=C(C)C)c2oc3c(O)ccc(O)c3c(=O)c2c1O", "tested on": "rep main protease", "test": "reporter gene (Gaussia luciferase), inhibitor", "setting": "20 µM", "measurement": "inhibition", "value": "-3.25%"}
{"Molecule": "CC1(C)C=Cc2c(O)ccc(-c3coc4cc(O)cc(O)c4c3=O)c2O1", "tested on": "rep main protease", "test": "enzyme activity, inhibitor", "setting": "concentration not given", "measurement": "inhibition", "value": "61.2%"}
{"Molecule": "O=C(NC[C@@H]1C[C@H]2CC[C@@H]1N(C(=O)c1ccc3n[nH]nc3n1)C2)[C@@H]1CCc2n[nH]c(=O)n2C1", "tested on": "rep main protease", "test": "enzyme activity, inhibitor", "setting": "5 µM, mean of runs", "measurement": "inhibition", "value": "13.4%"}
{"Molecule": "Cc1ccc(OCCn2c(C)c(C=C3C(=O)NC(=S)NC3=O)c3ccccc32)c(C)c1", "tested on": "rep main protease", "test": "viral replication, mKate2 reporter", "system": "SARS-CoV-2", "setting": "20 µM", "measurement": "inhibition", "value": "-1.7%"}
{"Molecule": "CC(C)=CCc1c(O)ccc(-c2coc3cc(O)cc(O)c3c2=O)c1O", "tested on": "rep papain-like protease", "test": "enzyme activity, inhibitor", "setting": "concentration not given", "measurement": "inhibition", "value": "45.5%"}
{"Molecule": "Cc1cncc(CC(=O)N2CCC[C@@H]([C@@H]3CCN(C(=O)c4cnn(-c5ccccn5)c4)C3)C2)c1", "tested on": "rep main protease", "test": "enzyme activity, inhibitor", "setting": "5 µM, run 1", "measurement": "inhibition", "value": "21.7%"}
{"Molecule": "COc1cc(O)c2c(c1)O[C@H](c1ccccc1)CC2=O", "tested on": "rep main protease", "test": "enzyme activity, inhibitor", "setting": "10 µM", "measurement": "inhibition", "value": "1.28%"}
{"Molecule": "O=C1CC(C(=O)N2CC3(CCC3)C[C@H]2CNC(=O)c2cncc3[nH]cnc23)CC(=O)N1", "tested on": "rep main protease", "test": "enzyme activity, inhibitor", "setting": "5 µM, mean of runs", "measurement": "inhibition", "value": "11.4%"}
{"Molecule": "Cc1nc(-c2ccccc2F)c(C(=O)NC(Cc2ccccc2)C(=O)C(N)=O)o1 (stereo not shown)", "tested on": "rep main protease", "test": "reporter gene (mKate2), inhibitor", "setting": "20 µM", "measurement": "inhibition", "value": "-0.553%"}
{"Molecule": "Nc1cccc(C(=O)NC[C@H](NC(=O)c2cnc3n[nH]nc3c2)c2ccc3ccccc3c2)c1", "tested on": "rep main protease", "test": "enzyme activity, inhibitor", "setting": "5 µM, run 1", "measurement": "inhibition", "value": "9.2%"}
{"Molecule": "CC(=O)OCCN1C(=O)c2c(C)nc3ccc(S(=O)(=O)N4CCOCC4)cc3c2C1=O", "tested on": "rep main protease", "test": "reporter gene (mKate2), inhibitor", "setting": "20 µM", "measurement": "inhibition", "value": "-0.553%"}
{"Molecule": "O=C(NC[C@H](NC(=O)c1cn[nH]c1-c1ccoc1)c1ccc2ccccc2c1)c1ccccc1", "tested on": "rep main protease", "test": "enzyme activity, inhibitor", "setting": "5 µM, mean of runs", "measurement": "inhibition", "value": "13.5%"}
{"Molecule": "COc1cc(OC)c2c(=O)c(OC)c(-c3ccccc3)oc2c1", "tested on": "rep main protease", "test": "enzyme activity, inhibitor", "setting": "100 µM", "measurement": "inhibition", "value": "-13.7%"}
{"Molecule": "O=C(NC[C@H]1CN(C(=O)c2cc(O)ccc2F)CC[C@@]12CCOC2)c1ccc2n[nH]nc2c1", "tested on": "rep main protease", "test": "enzyme activity, inhibitor", "setting": "5 µM, run 1", "measurement": "inhibition", "value": "15.6%"}
{"Molecule": "COc1ccc(-c2cc(=O)c3c(OC)cc(OC)cc3o2)cc1", "tested on": "rep main protease", "test": "enzyme activity, inhibitor", "setting": "10 µM", "measurement": "inhibition", "value": "-46.4%"}
{"note": "Repeated from above:"}
{"Molecule": "COc1c2c(cc3oc(=O)c(-c4ccc(O)cc4O)cc13)OC(C)(C)CC2", "tested on": "rep main protease", "test": "enzyme activity, inhibitor", "setting": "concentration not given", "measurement": "inhibition", "value": "16.2%"}
{"Molecule": "Cc1ccc(OCCn2c(C)c(C=C3C(=O)NC(=S)NC3=O)c3ccccc32)c(C)c1", "tested on": "rep main protease", "test": "viral replication, mKate2 reporter", "system": "SARS-CoV-2", "setting": "20 µM", "measurement": "inhibition", "value": "-1.7%"}
